# Assay results gathered from unrelated publications.
# Lines come from different studies, so protocols differ. ± marks the error that the study gave.
Substance,test,test system,setting,how to read,measurement,result
lead,,1-octanol/water,,,logP,0.71 ± 0.02
Cc1cc(C(C#N)c2ccc(Cl)cc2)c(Cl)cc1NC(=O)c1cc(I)cc(I)c1O (stereo not drawn),"HPLC, non-compartmental","Corriedale lambs, parasitized, plasma","oral, 10 mg/kg",,elimination half-life,14.4 days
CC(C)OC(=O)[C@H](CCC(=O)C=[N+]=[N-])NC(=O)OC(OC(=O)C(C)(C)C)C(C)C (mixture of isomers),,human plasma,"10 µM, 60 min, 37 °C",,remaining compound,100 ± 7%
[123I]c1cncc(OC[C@@H]2CCN2)c1,SPECT,"human, head of caudate nucleus","intravenous bolus, 8.6 mCi",relative to: tissue over plasma,tissue/plasma ratio,18.1
Oc1cc(Cl)c(Cl)c(-c2cc(Cl)ccc2Cl)c1Cl,"enantioselective GC, item: hydroxylated metabolite","phenobarbital-treated rat, rat liver microsomes","50 µM, 30 min",,enantiomeric fraction,0.32
Cn1c(Cn2ccc(C(F)(F)F)c(Oc3cc(Cl)cc(C#N)c3)c2=O)n[nH]c1=O,,healthy adults,"oral, 100 mg once daily, alone or coadministered, together with: islatravir 2.25 mg once daily",,participants with drug-related adverse events,40%
Cn1cc(C2=C(c3cn(C4CCN(Cc5ccccn5)CC4)c4ccccc34)C(=O)NC2=O)c2ccccc21,,"phase I cancer patients, plasma","oral, 250 mg once daily, cycle 1 day 22, geometric mean, together with: erlotinib 150 mg daily",,"Cav,ss",275 nM
CC(=O)N[C@H](CCCCNC(=O)C(C)F)C(=O)N[C@@H](CS)C(=O)N[C@@H](CS)C(=O)N[C@@H](CCC(=O)O)C(=O)N[C@@H](Cc1c[nH]cn1)C(=O)N[C@H](Cc1ccccc1)C(=O)N[C@@H](CCCNC(=N)N)C(=O)N[C@@H](Cc1c[nH]c2ccccc12)C(=O)N[C@@H](CS)C(=O)N[C@@H](CCCNC(=N)N)C(=O)N1CCC[C@H]1C(=O)N[C@H](C(N)=O)C(C)C (stereo partly drawn) [fluorine-18 labelled],,"C57BL/6 mice, male, B16-F10 tumour, pancreas","intravenous, 1 h",,tissue uptake,0.32 ± 0.08 %ID/g
CN[C@@](C)(C[18F])C(=O)O,,"SCID mouse SK-OV-3 xenograft, blood","15 min, post injection",,tissue uptake,1.4 ± 0.3 %ID/g
NC(=O)c1nc(F)c[nH]c1=O,UV-Vis spectrophotometry,supercritical CO2,"120 min, 338 K, 24 MPa, 751.17 kg/m^3",,solubility,1500 µg/mL
CCCCCCCCCCCCCCCC[N+](C)(C)Cc1ccccc1,ultrafiltration,human serum,,,unbound fraction in blood,0.172
CS(=O)(=O)CCCn1c(Cn2c(=O)n(CC(F)(F)F)c3ccncc32)cc2cc(Cl)ccc21,,RSV-infected infants,"concentration not given, all dose cohorts",,patients with high aPTT,14%

# A few entries again:
Substance,test,test system,setting,how to read,measurement,result
CC(=O)N[C@H](CCCCNC(=O)C(C)F)C(=O)N[C@@H](CS)C(=O)N[C@@H](CS)C(=O)N[C@@H](CCC(=O)O)C(=O)N[C@@H](Cc1c[nH]cn1)C(=O)N[C@H](Cc1ccccc1)C(=O)N[C@@H](CCCNC(=N)N)C(=O)N[C@@H](Cc1c[nH]c2ccccc12)C(=O)N[C@@H](CS)C(=O)N[C@@H](CCCNC(=N)N)C(=O)N1CCC[C@H]1C(=O)N[C@H](C(N)=O)C(C)C (stereo partly drawn) [fluorine-18 labelled],,"C57BL/6 mice, male, B16-F10 tumour, pancreas","intravenous, 1 h",,tissue uptake,0.32 ± 0.08 %ID/g
